{"data": "Published values gathered from unrelated publications", "note": "Lines come from different studies, so protocols differ. ± gives the spread as reported.", "chain of UniProt P49753 (whole entry, looked up)": "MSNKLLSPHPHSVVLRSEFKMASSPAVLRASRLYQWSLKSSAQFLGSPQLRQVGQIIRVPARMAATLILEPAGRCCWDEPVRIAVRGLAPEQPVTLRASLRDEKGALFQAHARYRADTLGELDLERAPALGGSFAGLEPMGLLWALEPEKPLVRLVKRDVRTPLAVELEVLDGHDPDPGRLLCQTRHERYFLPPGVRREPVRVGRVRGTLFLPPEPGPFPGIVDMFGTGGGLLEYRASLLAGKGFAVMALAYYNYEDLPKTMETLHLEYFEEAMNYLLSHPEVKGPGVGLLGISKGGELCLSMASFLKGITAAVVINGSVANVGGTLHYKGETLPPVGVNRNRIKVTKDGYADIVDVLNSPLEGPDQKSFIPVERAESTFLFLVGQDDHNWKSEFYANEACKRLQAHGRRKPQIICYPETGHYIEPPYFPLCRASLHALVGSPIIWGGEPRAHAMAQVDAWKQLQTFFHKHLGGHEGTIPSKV", "chain of UniProt Q9HC35 (whole entry, looked up)": "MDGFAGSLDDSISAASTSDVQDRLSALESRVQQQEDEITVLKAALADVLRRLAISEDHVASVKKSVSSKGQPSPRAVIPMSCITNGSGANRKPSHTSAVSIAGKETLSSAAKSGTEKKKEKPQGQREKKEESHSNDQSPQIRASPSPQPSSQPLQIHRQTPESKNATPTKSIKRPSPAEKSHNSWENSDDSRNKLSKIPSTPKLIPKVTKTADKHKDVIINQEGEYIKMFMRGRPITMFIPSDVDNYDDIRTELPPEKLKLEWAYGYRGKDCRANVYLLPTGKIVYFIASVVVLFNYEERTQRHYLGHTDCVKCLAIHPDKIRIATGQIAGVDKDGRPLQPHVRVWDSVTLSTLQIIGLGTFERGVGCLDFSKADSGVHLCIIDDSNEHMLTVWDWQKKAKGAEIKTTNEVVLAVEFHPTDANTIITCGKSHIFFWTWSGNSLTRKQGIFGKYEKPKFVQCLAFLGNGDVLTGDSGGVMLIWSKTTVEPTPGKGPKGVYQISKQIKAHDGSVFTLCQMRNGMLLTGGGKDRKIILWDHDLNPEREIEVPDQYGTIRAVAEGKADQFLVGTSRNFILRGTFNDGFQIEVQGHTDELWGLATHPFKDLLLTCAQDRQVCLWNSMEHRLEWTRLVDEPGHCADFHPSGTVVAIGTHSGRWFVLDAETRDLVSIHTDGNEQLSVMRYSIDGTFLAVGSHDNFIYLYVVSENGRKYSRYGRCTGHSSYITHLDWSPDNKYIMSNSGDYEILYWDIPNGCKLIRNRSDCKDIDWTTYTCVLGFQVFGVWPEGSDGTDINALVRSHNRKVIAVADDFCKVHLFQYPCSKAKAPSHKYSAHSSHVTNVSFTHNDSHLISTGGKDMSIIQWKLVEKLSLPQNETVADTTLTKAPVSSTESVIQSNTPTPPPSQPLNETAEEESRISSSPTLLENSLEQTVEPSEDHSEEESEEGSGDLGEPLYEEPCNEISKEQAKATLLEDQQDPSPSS", "chain of UniProt P47205 (whole entry, looked up)": "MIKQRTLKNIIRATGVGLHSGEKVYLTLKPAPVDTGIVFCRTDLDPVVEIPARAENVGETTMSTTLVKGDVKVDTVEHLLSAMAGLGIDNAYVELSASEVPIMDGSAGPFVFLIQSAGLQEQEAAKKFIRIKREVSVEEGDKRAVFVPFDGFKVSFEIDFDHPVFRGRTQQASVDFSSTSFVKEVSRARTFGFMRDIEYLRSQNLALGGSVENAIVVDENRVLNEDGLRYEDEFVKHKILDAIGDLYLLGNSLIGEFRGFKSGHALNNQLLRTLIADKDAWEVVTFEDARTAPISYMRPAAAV", "chain of UniProt P05771 (whole entry, looked up)": "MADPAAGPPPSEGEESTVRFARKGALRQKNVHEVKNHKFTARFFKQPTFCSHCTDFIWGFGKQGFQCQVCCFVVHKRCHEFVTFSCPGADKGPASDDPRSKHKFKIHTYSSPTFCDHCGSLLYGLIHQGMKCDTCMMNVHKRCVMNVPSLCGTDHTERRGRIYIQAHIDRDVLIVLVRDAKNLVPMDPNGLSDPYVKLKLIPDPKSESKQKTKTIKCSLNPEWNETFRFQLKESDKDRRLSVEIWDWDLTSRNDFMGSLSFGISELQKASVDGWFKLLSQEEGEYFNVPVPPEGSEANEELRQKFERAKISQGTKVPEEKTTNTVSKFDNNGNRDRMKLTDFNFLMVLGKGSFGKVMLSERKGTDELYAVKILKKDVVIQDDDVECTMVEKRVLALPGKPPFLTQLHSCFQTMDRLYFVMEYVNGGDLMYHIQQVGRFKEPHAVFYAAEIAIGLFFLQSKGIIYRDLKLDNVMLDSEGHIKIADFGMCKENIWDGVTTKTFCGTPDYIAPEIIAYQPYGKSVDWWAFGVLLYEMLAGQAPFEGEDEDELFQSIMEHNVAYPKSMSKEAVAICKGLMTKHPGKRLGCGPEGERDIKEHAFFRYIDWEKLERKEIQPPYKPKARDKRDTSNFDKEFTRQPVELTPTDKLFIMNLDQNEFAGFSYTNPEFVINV", "chain of UniProt P21397 (whole entry, looked up)": "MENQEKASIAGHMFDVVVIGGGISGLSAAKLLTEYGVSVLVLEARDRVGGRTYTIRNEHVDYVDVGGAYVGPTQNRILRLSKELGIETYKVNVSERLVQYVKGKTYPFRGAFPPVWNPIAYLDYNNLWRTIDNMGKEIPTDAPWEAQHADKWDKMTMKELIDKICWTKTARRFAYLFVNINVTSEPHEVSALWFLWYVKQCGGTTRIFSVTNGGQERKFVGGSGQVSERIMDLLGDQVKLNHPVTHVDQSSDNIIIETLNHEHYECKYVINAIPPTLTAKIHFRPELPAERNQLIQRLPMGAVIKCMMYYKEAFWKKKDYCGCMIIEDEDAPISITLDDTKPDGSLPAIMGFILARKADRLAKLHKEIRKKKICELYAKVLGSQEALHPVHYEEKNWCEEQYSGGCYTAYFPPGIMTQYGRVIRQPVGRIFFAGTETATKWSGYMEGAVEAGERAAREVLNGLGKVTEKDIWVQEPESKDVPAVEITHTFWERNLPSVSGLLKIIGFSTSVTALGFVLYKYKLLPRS", "chain of UniProt P11229 (whole entry, looked up)": "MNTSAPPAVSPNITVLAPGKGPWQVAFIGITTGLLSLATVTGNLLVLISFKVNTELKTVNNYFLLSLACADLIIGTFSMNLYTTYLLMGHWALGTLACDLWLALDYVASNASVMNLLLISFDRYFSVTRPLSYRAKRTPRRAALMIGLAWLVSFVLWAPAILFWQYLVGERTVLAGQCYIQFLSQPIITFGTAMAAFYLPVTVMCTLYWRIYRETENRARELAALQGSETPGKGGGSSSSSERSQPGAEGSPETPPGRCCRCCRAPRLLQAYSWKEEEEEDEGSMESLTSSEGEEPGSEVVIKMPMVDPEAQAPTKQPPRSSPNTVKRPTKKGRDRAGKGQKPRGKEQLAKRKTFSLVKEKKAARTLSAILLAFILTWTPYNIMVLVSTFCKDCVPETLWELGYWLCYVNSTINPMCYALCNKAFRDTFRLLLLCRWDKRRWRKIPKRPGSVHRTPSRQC", "chain of UniProt P34995 (whole entry, looked up)": "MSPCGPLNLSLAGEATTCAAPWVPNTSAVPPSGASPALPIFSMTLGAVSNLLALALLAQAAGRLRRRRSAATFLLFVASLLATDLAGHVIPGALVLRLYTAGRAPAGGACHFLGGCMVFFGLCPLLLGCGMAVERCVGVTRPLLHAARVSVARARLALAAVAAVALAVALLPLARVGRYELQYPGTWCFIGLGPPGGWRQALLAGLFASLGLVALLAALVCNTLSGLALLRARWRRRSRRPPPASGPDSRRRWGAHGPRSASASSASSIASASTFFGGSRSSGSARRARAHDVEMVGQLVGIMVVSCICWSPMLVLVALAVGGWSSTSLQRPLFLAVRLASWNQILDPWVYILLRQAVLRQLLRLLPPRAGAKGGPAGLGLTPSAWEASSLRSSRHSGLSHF"}
{"SMILES": "O=C(c1ccc(Cl)cc1)N1CCN2C(=O)N(OC(=O)N3CCOc4ccccc43)C(=O)C2C1 (stereo not drawn)", "target": "Acyl-coenzyme A thioesterase 2, mitochondrial (ACOT2, Homo sapiens, UniProt P49753)", "assay": "MS-based ABPP", "system": "SW-620 conditioned medium", "conditions": "10 µM, 1 h, 37 °C", "how to read": "baseline: compound over DMSO, lower = more inhibition", "quantity": "mean protein ratio", "result": 1.05}
{"SMILES": "O=C(Nc1cccnn1)N1CCC(=Cc2cccc(Oc3ccc(C(F)(F)F)cn3)c2)CC1", "target": "PTGER1 (Homo sapiens, UniProt P34995)", "assay": "binding, refers to: EP1", "conditions": "50 µM, human, with: [3H]prostaglandin E2", "quantity": "inhibition", "result": "41%"}
{"SMILES": "COc1ccc(N2C(=O)N(c3c(C)cccc3Cl)Cc3cnc(Nc4ccc(C5CCN(C)CC5)cc4OC)nc32)nc1", "target": "PRKCB (Homo sapiens, UniProt P05771)", "assay": "kinase activity, inhibitor", "conditions": "0.5 µM, kinase PKC-BETA1", "quantity": "inhibition", "result": "4.31%"}
{"SMILES": "Nc1ncnc2c1ncn2[C@H]1C[C@H](O)[C@@H](COP(=O)(O)OP(=O)(O)OP(=O)(O)O)O1", "target": "Gag-Pol polyprotein, reverse transcriptase (gag-pol, Human immunodeficiency virus type 1 group M subtype B, UniProt P04585)", "assay": "single nucleotide extension", "conditions": "G:A mismatched primer-template", "quantity": "kcat", "result": "0.0457 ± 0.00717 s⁻¹"}
{"SMILES": "O=C(Nc1cnccc1Cl)N1CCN(Cc2ccc3c(c2)OC(F)(F)O3)CC1", "target": "MAOA (Homo sapiens, UniProt P21397)", "assay": "enzyme activity, inhibitor", "conditions": "50 µM, human, with: kynuramine substrate", "quantity": "inhibition", "result": "16%"}
{"SMILES": "CN1CCN(c2cc(-c3ccncc3)c(-c3ccc4ccccc4c3)nn2)CC1", "target": "CHRM1 (Homo sapiens, UniProt P11229)", "assay": "agonist, FLIPR", "conditions": "12.5 µM", "quantity": "activation", "result": "0.2%"}
{"SMILES": "CCOC(=O)CC(SP(=O)(OC)OC)C(=O)OCC (stereo not drawn)", "target": "uncharacterized protein (Anopheles coluzzii, UniProt A0A6E8VQK1)", "assay": "enzyme activity, inhibitor", "system": "Sf9 cell homogenate", "conditions": "11.47 µM, 0.1667 h, with: α-naphthyl acetate substrate", "how to read": "baseline: no inhibitor", "quantity": "remaining activity", "result": "2.7%"}
{"SMILES": "C[C@H]1CN(c2n[nH]c3nc(N[C@H]4CC[C@H](NS(=O)(=O)CCC(F)(F)F)CC4)ncc23)CCO1", "target": "Echinoderm microtubule-associated protein-like 4 (Homo sapiens, UniProt Q9HC35)", "assay": "Kinobeads competition, refers to: EML4", "conditions": "20 µM, unit not given", "how to read": "baseline: vehicle", "quantity": "remaining binding", "result": 1.1}
{"SMILES": "CC(CCn1ccc(-c2ccc(-c3cn(Cc4ccc([N+](=O)[O-])cc4)nn3)cc2)cc1=O)(C(=O)NO)S(C)(=O)=O (stereo not drawn)", "target": "UDP-3-O-acyl-N-acetylglucosamine deacetylase (Pseudomonas aeruginosa, UniProt P47205)", "assay": "fluorescence", "conditions": "37 °C", "quantity": "residence time", "result": "78.5 ± 8.4 min"}
